Assay results collected from several papers.
Every numbered part comes from another study and shows a few of its results, in no order. Several values in a cell are separate wells, animals, samples, runs or records.
Chain of UniProt P51812 (whole entry, looked up): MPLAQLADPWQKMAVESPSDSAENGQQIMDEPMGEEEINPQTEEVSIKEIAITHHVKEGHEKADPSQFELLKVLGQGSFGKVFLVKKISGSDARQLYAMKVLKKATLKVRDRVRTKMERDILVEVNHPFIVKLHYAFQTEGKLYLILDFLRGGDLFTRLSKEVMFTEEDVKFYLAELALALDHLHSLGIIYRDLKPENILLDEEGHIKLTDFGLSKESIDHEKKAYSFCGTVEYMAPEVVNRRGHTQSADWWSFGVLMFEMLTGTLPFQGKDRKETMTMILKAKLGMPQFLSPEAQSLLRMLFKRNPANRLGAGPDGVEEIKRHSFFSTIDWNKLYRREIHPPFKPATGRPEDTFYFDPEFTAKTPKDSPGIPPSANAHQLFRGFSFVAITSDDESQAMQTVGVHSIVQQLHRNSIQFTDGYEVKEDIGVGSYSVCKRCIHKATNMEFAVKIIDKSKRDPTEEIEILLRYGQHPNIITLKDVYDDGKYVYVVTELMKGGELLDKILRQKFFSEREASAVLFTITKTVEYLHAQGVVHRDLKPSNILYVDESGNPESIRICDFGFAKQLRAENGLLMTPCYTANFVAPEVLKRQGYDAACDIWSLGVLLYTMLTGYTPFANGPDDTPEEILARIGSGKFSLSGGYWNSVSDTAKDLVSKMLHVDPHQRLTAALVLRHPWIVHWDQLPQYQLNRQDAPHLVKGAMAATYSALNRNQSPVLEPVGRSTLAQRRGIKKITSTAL
Chain of UniProt Q9HAZ1 (whole entry, looked up): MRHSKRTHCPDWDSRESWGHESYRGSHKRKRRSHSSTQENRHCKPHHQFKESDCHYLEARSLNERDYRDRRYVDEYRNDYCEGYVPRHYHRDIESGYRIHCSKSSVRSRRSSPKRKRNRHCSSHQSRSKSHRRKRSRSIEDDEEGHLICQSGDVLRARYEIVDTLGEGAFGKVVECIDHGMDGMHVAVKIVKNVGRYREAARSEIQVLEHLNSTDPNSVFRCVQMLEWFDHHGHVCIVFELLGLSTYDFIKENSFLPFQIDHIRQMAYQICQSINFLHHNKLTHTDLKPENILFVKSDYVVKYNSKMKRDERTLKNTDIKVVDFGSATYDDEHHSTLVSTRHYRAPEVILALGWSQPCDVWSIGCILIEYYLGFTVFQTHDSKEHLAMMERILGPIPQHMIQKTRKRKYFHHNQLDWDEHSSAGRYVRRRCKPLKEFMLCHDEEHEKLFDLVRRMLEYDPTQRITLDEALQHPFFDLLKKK

Study 1 — tested at: 1 µM; endpoint: remaining binding
Structure (SMILES): CCC1(c2cccc(-c3cn(C)nc3C)c2)C2=C(Nc3n[nH]cc31)C(F)C(C)(C)CC2=O (single isomer, unassigned)
CSNK1G1 (Homo sapiens, UniProt Q9HCP0); kinase binding, KINOMEscan; reference: DMSO control: 100%
MAPK8 (Homo sapiens, UniProt P45983); binding, competition with immobilised ligand: 94%
MAP4K2 (Homo sapiens, UniProt Q12851); binding, competition with immobilised ligand: 92%
Tyrosine-protein kinase ABL1, phosphorylated (ABL1, Homo sapiens, UniProt P00519, F317L); binding, competition with immobilised ligand: 98%
STK17A (Homo sapiens, UniProt Q9UEE5); binding, competition with immobilised ligand: 100%
DSTYK (Homo sapiens, UniProt Q6XUX3); binding, competition with immobilised ligand: 86%
FLT3 (Homo sapiens, UniProt P36888, K663Q); kinase binding, KINOMEscan; reference: DMSO control: 94%
STK24 (Homo sapiens, UniProt Q9Y6E0); kinase binding, KINOMEscan; reference: DMSO control: 100%
Cyclin-dependent kinase 4, with cyclin D1 (CDK4, Homo sapiens, UniProt P11802); kinase binding, KINOMEscan; reference: DMSO control: 64%
EPHA6 (Homo sapiens, UniProt Q9UF33); binding, competition with immobilised ligand: 100%
TNNI3K (Homo sapiens, UniProt Q59H18); binding, competition with immobilised ligand: 99%
CLK4 (Homo sapiens, UniProt Q9HAZ1); kinase binding, KINOMEscan; reference: DMSO control: 100%
PHKG1 (Homo sapiens, UniProt Q16816); binding, competition with immobilised ligand: 100%
MAP2K3 (Homo sapiens, UniProt P46734); binding, competition with immobilised ligand: 77%
DMPK (Homo sapiens, UniProt Q09013); binding, competition with immobilised ligand: 85%

Study 2 — read-out: thermal unfolding; technique: differential scanning fluorimetry; tested at: 5.5 µM; reading: higher = more unfolded; endpoint: SYPRO Orange fluorescence
SMILES: C[C@@H]1CN(c2ccc(-c3cc(C(=O)NCCOCCOCCOCCOCCNC(=O)Cn4cc(-c5[nH]cc(C(=O)N[C@@H](CC(N)=O)c6ccc(F)c(Cl)c6)c5-c5ccc(Cl)cc5F)cn4)ccc3F)cc2NC(=O)c2c[nH]c(=O)cc2C(F)(F)F)C[C@H](C)N1C
DCAF1: DDB1- and CUL4-associated factor 1 (DCAF1, Homo sapiens, UniProt Q9Y4B6)
Chain of UniProt Q9Y4B6 (whole entry, looked up): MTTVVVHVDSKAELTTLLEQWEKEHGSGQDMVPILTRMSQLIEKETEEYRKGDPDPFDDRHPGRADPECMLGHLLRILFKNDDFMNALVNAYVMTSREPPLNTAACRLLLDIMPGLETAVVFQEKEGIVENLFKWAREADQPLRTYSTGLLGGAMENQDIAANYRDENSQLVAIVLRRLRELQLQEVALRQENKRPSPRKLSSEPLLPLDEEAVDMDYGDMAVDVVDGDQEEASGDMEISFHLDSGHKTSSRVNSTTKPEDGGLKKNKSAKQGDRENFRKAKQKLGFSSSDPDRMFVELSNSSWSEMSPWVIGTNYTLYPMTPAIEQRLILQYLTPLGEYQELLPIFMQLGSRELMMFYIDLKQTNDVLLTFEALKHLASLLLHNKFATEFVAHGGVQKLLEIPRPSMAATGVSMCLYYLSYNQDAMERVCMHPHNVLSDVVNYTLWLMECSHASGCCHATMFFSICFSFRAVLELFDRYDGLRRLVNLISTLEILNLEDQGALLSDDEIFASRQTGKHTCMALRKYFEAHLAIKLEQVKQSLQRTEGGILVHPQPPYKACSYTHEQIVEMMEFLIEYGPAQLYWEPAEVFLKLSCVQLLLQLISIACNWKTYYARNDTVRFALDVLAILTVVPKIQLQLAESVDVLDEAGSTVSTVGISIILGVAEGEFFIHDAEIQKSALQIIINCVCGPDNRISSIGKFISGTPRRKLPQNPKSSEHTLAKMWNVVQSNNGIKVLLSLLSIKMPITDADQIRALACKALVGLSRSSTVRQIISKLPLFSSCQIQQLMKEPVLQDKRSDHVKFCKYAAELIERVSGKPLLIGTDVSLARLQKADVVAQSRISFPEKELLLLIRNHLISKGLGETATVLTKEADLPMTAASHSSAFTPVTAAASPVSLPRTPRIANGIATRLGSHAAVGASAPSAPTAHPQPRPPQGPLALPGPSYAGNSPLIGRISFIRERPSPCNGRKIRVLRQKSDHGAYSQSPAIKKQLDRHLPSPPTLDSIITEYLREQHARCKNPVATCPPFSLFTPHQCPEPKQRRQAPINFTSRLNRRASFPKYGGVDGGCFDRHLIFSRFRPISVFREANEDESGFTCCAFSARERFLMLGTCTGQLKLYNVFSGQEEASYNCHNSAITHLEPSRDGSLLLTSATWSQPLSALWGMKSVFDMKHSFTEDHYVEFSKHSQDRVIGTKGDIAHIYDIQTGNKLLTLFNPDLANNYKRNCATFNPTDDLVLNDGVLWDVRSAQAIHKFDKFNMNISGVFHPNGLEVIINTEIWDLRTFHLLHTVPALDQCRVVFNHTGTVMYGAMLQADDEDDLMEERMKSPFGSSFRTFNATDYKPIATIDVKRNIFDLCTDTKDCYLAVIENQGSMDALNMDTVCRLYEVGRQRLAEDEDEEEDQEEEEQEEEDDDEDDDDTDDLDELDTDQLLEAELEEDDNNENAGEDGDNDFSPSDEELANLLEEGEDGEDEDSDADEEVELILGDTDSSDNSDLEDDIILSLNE
WDR5: WD repeat-containing protein 5 (WDR5, Homo sapiens, UniProt P61964)
DCAF1; 94.81 °C: 30100 a.u.
DCAF1; 82.81 °C: 41800 a.u.
DCAF1; 68.61 °C: 55700 a.u.
WDR5; 61.01 °C: 9840 a.u.
WDR5; 36.8 °C: 14300 a.u.
DCAF1; 93.41 °C: 31600 a.u.
WDR5; 38 °C: 14400 a.u.
DCAF1; 88.01 °C: 37000 a.u.
WDR5; 69.41 °C: 6740 a.u.
DCAF1; 29.4 °C: 8130 a.u.
DCAF1; 26.6 °C: 7690 a.u.

Study 3 — action: inhibitor; endpoint: inhibition
SMILES: CCN(CC)CC(=O)N1CCN(c2nc(NCc3nc4cc(Cl)c(Cl)cc4[nH]3)c3ncn(CC)c3n2)CC1
CDK12 with cyclin K: Cyclin-dependent kinase 12, with cyclin K (CDK12, Homo sapiens, UniProt Q9NYV4)
Chain of UniProt Q9NYV4 (whole entry, looked up): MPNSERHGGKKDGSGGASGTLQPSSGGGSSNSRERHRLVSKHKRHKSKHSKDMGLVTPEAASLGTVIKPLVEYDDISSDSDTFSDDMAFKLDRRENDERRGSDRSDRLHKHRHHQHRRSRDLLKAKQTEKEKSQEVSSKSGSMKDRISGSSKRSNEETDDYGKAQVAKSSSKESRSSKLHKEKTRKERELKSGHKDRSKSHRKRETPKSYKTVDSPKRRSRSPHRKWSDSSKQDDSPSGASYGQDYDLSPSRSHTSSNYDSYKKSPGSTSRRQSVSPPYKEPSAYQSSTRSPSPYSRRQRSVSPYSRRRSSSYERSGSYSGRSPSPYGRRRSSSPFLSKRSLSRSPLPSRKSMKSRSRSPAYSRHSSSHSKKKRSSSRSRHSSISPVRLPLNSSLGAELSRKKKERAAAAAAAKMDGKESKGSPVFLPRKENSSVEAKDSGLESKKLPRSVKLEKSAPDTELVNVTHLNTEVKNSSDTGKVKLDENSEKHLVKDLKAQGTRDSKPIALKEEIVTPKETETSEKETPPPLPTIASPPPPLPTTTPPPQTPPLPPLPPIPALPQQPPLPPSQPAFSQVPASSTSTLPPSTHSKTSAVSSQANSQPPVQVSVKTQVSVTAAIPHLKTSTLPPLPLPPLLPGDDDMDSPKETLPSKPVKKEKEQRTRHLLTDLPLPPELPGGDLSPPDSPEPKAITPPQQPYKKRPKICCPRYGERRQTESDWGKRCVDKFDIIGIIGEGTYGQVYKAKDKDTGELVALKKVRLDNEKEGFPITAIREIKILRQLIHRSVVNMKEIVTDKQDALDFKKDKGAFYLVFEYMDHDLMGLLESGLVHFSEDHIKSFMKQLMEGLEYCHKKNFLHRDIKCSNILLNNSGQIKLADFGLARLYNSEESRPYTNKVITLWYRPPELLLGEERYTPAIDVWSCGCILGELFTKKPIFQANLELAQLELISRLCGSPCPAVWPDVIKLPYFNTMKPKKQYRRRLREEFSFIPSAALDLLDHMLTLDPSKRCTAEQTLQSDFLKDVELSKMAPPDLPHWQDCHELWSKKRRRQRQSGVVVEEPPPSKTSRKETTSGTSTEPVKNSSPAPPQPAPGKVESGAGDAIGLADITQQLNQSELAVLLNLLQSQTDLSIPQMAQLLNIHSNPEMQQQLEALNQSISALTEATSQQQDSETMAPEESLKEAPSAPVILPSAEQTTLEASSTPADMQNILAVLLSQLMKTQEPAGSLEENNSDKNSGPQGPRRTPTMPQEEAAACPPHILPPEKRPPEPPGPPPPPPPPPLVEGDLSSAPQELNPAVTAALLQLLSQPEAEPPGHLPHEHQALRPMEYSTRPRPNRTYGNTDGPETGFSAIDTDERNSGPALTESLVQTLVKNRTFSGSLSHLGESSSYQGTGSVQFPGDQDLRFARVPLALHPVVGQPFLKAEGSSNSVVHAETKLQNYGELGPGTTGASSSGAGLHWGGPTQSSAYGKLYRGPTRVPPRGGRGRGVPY
CDK2: Cyclin-dependent kinase 2 (CDK2, Homo sapiens, UniProt P24941)
CDK9: Cyclin-dependent kinase 9 (CDK9, Homo sapiens, UniProt P50750)
Chain of UniProt P50750 (whole entry, looked up): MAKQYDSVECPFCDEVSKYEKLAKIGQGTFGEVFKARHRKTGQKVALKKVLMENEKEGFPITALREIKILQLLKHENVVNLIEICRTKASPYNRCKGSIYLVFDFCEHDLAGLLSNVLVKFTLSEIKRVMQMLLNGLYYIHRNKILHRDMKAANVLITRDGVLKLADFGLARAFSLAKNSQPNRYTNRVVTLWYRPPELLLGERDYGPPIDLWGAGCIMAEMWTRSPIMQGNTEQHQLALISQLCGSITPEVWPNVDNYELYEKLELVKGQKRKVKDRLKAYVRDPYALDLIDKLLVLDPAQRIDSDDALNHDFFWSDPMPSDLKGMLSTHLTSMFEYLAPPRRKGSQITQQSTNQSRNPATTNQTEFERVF
CDK12 with cyclin K; kinase activity, ADP-Glo; 0.0741 µM: 20%
CDK12 with cyclin K; kinase activity, ADP-Glo; 0.0003 µM: 1.1%
CDK12 with cyclin K; kinase activity, ADP-Glo; 0.0247 µM: 14.4%
CDK13 (Homo sapiens, UniProt Q14004); enzyme activity, ADP detection; 10 µM: 87%
CDK2; enzyme activity, ADP detection; 41.2 nM: -7%
CDK2; enzyme activity, ADP detection; 1.5 nM: 2.4%
CDK2; enzyme activity, ADP detection; 10 µM: 8.2%
CDK9; enzyme activity, ADP detection; 3.333 µM: 58.7%
CDK7 (Homo sapiens, UniProt P50613); enzyme activity, ADP detection; 500 pM: 3.2%
CDK9; enzyme activity, ADP detection; 13.7 nM: -3.6%
CDK12 with cyclin K; kinase activity, ADP-Glo; 0.0001 µM: 3.1%
CDK9; enzyme activity, ADP detection; 41.2 nM: -1.2%

Study 4 — endpoint: paw withdrawal frequency
SMILES: COc1cc(C(=O)OCCCN2CCCN(CCCOC(=O)c3cc(OC)c(OC)c(OCc4ccc([N+](=O)[O-])cc4)c3)CC2)cc(OC)c1OC
von Frey, 0.4 g filament; mouse, CFA inflammatory pain; subcutaneous, 10 mg/kg, baseline before CFA: 10% and 0%
von Frey, 0.4 g filament; mouse, CFA inflammatory pain; subcutaneous, 10 mg/kg, 1 h post-dose, second injection, day 3: 80% and 50% and 70%
von Frey, 0.4 g filament; mouse, CFA inflammatory pain; subcutaneous, 10 mg/kg, 1 h post-dose, third injection, day 5: 80% and 70% and 50%
von Frey, 0.4 g filament; mouse, CFA inflammatory pain; subcutaneous, 10 mg/kg, 24 h post-dose, third injection, day 5: 70% and 80% and 90%
von Frey, 0.4 g filament; mouse, CFA inflammatory pain; subcutaneous, 10 mg/kg, 3 h post-dose, first injection, day 1: 70% and 50% and 80%
von Frey, 0.4 g filament; mouse, CFA inflammatory pain; subcutaneous, 10 mg/kg, 24 h post-dose, second injection, day 3: 70% and 80%
von Frey, 0.4 g filament; mouse, CFA inflammatory pain; intravenous, dose not given, 3 h post-dose, second injection, day 3: 20% and 30%
von Frey, 0.4 g filament; mouse, CFA inflammatory pain; subcutaneous, 10 mg/kg, after CFA, before dosing: 80% and 60% and 90% and 70%
von Frey test; mouse, spared nerve injury; intrathecal, 100 nmol, third of 3 doses, 5 h: 60% and 10% and 0% and 70%
cold mechanical pain; mouse, spared nerve injury model; intrathecal, 100 nmol, before third of 3 doses: 10% and 40% and 60% and 80%
von Frey, 0.4 g filament; mouse, CFA inflammatory pain; intravenous, dose not given, 3 h post-dose, third injection, day 5: 20% and 0% and 10%
von Frey, 0.4 g filament; mouse, CFA inflammatory pain; intravenous, dose not given, 3 h post-dose, first injection, day 1: 30% and 40% and 20%

Study 5 — read-out: kinase activity; endpoint: inhibition
SMILES: CN(C1COC1)C(C)(C)/C=C(\C#N)C(=O)N1CCC[C@H]1Cn1nc(-c2ccc(Oc3ccccc3)cc2F)c2c(N)ncnc21
ALK: ALK tyrosine kinase receptor (ALK, Homo sapiens, UniProt Q9UM73)
IKBKB (Homo sapiens, UniProt O14920); 0.1 µM: -3%
ROCK1 (Homo sapiens, UniProt Q13464); 0.1 µM: 1%
MUSK (Homo sapiens, UniProt O15146); 1 µM: 2%
PAK5 (Homo sapiens, UniProt Q9P286); 0.1 µM: 4%
MAPKAPK3 (Homo sapiens, UniProt Q16644); 1 µM: 6%
AKT3 (Homo sapiens, UniProt Q9Y243); 1 µM: -1%
ALK; 1 µM: -4%
CDC42BPB (Homo sapiens, UniProt Q9Y5S2); 1 µM: -4%
TYK2 (Homo sapiens, UniProt P29597); 1 µM: -1%
CLK4 (Homo sapiens, UniProt Q9HAZ1); 1 µM: -2%
DYRK1A (Homo sapiens, UniProt Q13627); 1 µM: -2%
EPHA1 (Homo sapiens, UniProt P21709); 0.1 µM: 4%
PRKG1 (Homo sapiens, UniProt Q13976); 1 µM: -2%
ALK; 0.1 µM: -3%
MAPK11 (Homo sapiens, UniProt Q15759); 0.1 µM: 2%
RPS6KB1 (Homo sapiens, UniProt P23443); 0.1 µM: 3%
TBK1 (Homo sapiens, UniProt Q9UHD2); 0.1 µM: 1%
TNK1 (Homo sapiens, UniProt Q13470); 0.1 µM: -4%
RPS6KA3 (Homo sapiens, UniProt P51812); 1 µM: -2%
YES1 (Homo sapiens, UniProt P07947); 0.1 µM: 18%
FLT3 (Homo sapiens, UniProt P36888); 0.1 µM: 12%

Study 6 — read-out: enzyme activity; action: inhibitor; technique: Ub-TR-FRET; matrix: HECT domain; tested at: 0.1372 µM; reading: higher = more chain formation; endpoint: ubiquitin chain formation AUC
Target: E3 ubiquitin-protein ligase NEDD4, HECT domain (Homo sapiens, UniProt P46934)
Residues (P46934 938-1319, limits assumed): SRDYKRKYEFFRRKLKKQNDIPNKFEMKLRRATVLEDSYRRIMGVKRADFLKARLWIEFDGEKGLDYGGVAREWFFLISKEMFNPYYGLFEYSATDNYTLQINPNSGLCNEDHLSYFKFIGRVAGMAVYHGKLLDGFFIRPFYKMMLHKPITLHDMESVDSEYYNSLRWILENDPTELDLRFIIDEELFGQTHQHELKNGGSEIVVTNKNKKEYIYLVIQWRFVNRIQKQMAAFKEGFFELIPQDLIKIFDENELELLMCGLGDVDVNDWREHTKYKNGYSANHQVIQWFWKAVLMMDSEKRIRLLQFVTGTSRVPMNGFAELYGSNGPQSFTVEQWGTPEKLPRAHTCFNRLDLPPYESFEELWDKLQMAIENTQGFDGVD
COC(=O)CCCNCCCN1c2ccccc2CCc2ccc(Cl)cc21.COC(=O)CCCNCCCN1c2ccccc2CCc2ccc(Cl)cc21.O=C(O)/C=C/C(=O)O: 131000 a.u. and 132000 a.u. and 130000 a.u.
CCOC(=O)/C=C/CNCCCCN1c2cc(Cl)ccc2COc2ccccc21.O=C(O)/C=C\C(=O)O: 87400 a.u. and 85900 a.u. and 87500 a.u.
Cl.NC(=O)/C=C/CNCCCN1c2ccccc2CCc2ccc(Cl)cc21: 139000 a.u.
CCOC(=O)/C=C/CNCCCCN1c2ccccc2C(=O)N(C)c2ccc(Cl)cc21.O=C(O)/C=C\C(=O)O: 95300 a.u. and 96000 a.u. and 95800 a.u.

Study 7 — read-out: binding; technique: competition with immobilised ligand; tested at: 1 µM; endpoint: remaining binding
SMILES: COc1cc(-c2nc3ccc(C(=O)NCCCN4CCN(c5cccc(C)c5C)CC4)cc3n2C2CCC2)cc(OC)c1OC
SIK2 (Homo sapiens, UniProt Q9H0K1): 100%
CDK18 (Homo sapiens, UniProt Q07002): 96%
MAP3K1 (Homo sapiens, UniProt Q13233): 91%
MAP3K2 (Homo sapiens, UniProt Q9Y2U5): 71%
TLK2 (Homo sapiens, UniProt Q86UE8): 100%
MAPK9 (Homo sapiens, UniProt P45984): 77%
FLT3 (Homo sapiens, UniProt P36888, D835Y): 93%
MAP3K14 (Homo sapiens, UniProt Q99558): 100%
CHUK (Homo sapiens, UniProt O15111): 89%
NEK4 (Homo sapiens, UniProt P51957): 100%
MET (Homo sapiens, UniProt P08581, M1250T): 89%
TEK (Homo sapiens, UniProt Q02763): 84%
MAP2K1 (Homo sapiens, UniProt Q02750): 87%
CDKL2 (Homo sapiens, UniProt Q92772): 74%
Ribosomal protein S6 kinase alpha-3, N-terminal kinase domain (RPS6KA3, Homo sapiens, UniProt P51812): 83%
MAP3K15 (Homo sapiens, UniProt Q6ZN16): 78%
CLK1 (Homo sapiens, UniProt P49759): 96%
PRKD1 (Homo sapiens, UniProt Q15139): 89%

Mixed results
PKMYT1: Membrane-associated tyrosine- and threonine-specific cdc2-inhibitory kinase (PKMYT1, Homo sapiens, UniProt Q99640)
Chain of UniProt Q99640 (whole entry, looked up): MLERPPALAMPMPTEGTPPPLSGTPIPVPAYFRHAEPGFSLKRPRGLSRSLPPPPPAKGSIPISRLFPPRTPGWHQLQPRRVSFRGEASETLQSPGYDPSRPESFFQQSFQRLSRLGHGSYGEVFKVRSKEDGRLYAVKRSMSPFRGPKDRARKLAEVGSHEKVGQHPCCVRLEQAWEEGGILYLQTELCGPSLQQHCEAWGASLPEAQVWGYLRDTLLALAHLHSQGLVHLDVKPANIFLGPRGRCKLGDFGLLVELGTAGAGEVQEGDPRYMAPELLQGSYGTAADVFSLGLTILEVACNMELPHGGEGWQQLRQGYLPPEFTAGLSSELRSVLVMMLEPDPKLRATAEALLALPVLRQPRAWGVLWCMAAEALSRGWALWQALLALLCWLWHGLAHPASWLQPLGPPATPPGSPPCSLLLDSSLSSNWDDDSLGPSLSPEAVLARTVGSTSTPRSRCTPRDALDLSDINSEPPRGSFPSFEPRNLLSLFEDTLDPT
Cc1ccc(O)c(C)c1-c1cnc2[nH]c(-c3cnc(N4CCC(CCN5CCN(c6cc7c(cc6F)c(N6CCC(=O)NC6=O)nn7C)CC5)CC4)nc3)cc2c1C#N  inhibition (PKMYT1; binding, HTRF; 0.051 nM): -2.66% and -3.61%
Cc1ccc(O)c(C)c1-c1cnc2[nH]c(-c3cnc(N)nc3)cc2c1C#N  protein level (PKMYT1; immunoblotting; 0.1 µM, unit not given; reference: untreated): 1.16
Cc1ccc(O)c(C)c1-c1cnc2[nH]c(-c3cnc(N4CCC5(CC4)CC(N4CCN(c6ccc(NC7CCC(=O)NC7=O)cc6F)CC4)CO5)nc3)cc2c1C#N (stereo not shown)  bioavailability (female CD-1 mouse, plasma; oral, 20 mg/kg): 53.4%
Cc1ccc(O)c(C)c1-c1cnc2[nH]c(-c3cnc(N4CCC5(CC4)CC(N4CCN(c6cc7c(cc6F)c(N6CCC(=O)NC6=O)nn7C)CC4)CO5)nc3)cc2c1C#N (racemic)  protein level (PKMYT1; degrader, automated immunoblot (Jess); 0.01 nM; reference: GAPDH): 97.9%

Excerpt of the above (study 5):
MAPKAPK3 (Homo sapiens, UniProt Q16644); 1 µM: 6%
AKT3 (Homo sapiens, UniProt Q9Y243); 1 µM: -1%
ALK; 1 µM: -4%
CDC42BPB (Homo sapiens, UniProt Q9Y5S2); 1 µM: -4%
TYK2 (Homo sapiens, UniProt P29597); 1 µM: -1%
CLK4 (Homo sapiens, UniProt Q9HAZ1); 1 µM: -2%
DYRK1A (Homo sapiens, UniProt Q13627); 1 µM: -2%
EPHA1 (Homo sapiens, UniProt P21709); 0.1 µM: 4%
PRKG1 (Homo sapiens, UniProt Q13976); 1 µM: -2%
